Measurements from different studies.
Numbered parts are unrelated; each lists some results of a single study.

Set 1
Target: Ras GTPase-activating protein-binding protein 1, RRM domain (G3BP1, Homo sapiens, UniProt Q13283)
Chain of UniProt Q13283 (whole entry, looked up): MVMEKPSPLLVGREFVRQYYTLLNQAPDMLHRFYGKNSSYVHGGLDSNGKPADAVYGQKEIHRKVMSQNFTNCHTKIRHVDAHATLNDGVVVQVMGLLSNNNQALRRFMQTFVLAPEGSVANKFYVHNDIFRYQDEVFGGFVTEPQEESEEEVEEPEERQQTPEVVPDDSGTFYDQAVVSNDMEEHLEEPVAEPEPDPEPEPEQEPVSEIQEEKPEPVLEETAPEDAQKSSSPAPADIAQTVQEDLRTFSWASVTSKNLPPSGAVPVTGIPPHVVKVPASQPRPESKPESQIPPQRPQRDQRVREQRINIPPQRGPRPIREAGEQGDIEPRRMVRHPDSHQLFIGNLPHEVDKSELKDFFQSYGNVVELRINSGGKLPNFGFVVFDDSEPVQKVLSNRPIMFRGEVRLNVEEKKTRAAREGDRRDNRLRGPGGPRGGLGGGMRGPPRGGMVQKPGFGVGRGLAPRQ
Method: RNA Bind-n-Seq
Molecule type: RNA
Medium: in vitro
Concentration: 1 µM
Notes: whole 134-nt RNA, ends assumed
Together with: 150 mM KCl
Relative to: input library
Direction: higher = stronger binding
Shared flanks, not repeated: GGGAGUUCUACAGUCCGACGAUC … UGGAAUUCUCGGGUGUCAAGG
`CAAGUCCUGUGCUACACAUCGUAUGUACCGAAUCGGGGUUUGGGUUUGGUUUGGGGAAAGUAUUAUGUUACGCCGUUCGGAUCUGCACUU` has a log2 enrichment of -0.293.
For `AAGUCCUGUGCUACACAUCGUAUGUACCGAAUCGGUUUUUGGAAAGGUUUUUUUGGAAAGUAUUAUGUUACGCCGUUCGGAUCUGCACUU`, the log2 enrichment was -0.34.
With `CAAGUCCUGUGCUACACAUCGUAUGUACCGAAUCGGGUUUGGGAAAAAGGGUGGGAAAGUAUUAUGUUACGCCGUUCGGAUCUGCACUUC` the log2 enrichment was 0.844.
For `UCAAGUCCUGUGCUACACAUCGUAUGUACCGAAUCGGUUUGGGUUUGGGGUUUGGAAAGUAUUAUGUUACGCCGUUCGGAUCUGCACUUC`, the log2 enrichment was -0.272.
`ACCAUGCAGCUGGGCAUCUUUGGGAAGUGGGGCAAGGGGGGGAUAGGGAGGGGGGUAACACUUUGGGAACAGGUGGUCCCAGGUCGUUUC` has a log2 enrichment of -0.356.
`AGUCCUGUGCUACACAUCGUAUGUACCGAAUCAAAUUUAAACCCAAAUUUUUUUAAAAAAGUAUUAUGUUACGCCGUUCGGAUCUGCACU` gave a log2 enrichment of -0.509.
For `UCAAGUCCUGUGCUACACAUCGUAUGUACCGAAUCGUGUGUGUGUGUGUGUGUGUAAAGUAUUAUGUUACGCCGUUCGGAUCUGCACUUC`, the log2 enrichment was -0.0982.
The log2 enrichment of `CCUGUGCUACACAUCGUAUGUACCGAAUCAAAUUUUUUUAAACCCCCCCAAAUUUUUAAAAAAGUAUUAUGUUACGCCGUUCGGAUCUGC` is reported as -1.01.
With `AGUCCUGUGCUACACAUCGUAUGUACCGAAUCGGGGAGGGGAAAGGGGAAAAAGGGGAAAGUAUUAUGUUACGCCGUUCGGAUCUGCACU` the log2 enrichment was 0.871.

Set 2
Target: Interferon regulatory factor 7, full length, phosphomimetic (IRF7, Homo sapiens, UniProt Q92985, residues 1-503, S471D/S472D/S475D/S476D/S477D/S483D/S484D/S487D)
Method: protein-binding microarray
Molecule type: double-stranded DNA, one strand shown
Medium: in vitro
Concentration: 2200 nM top
Notes: 60-bp whole probe
Together with: salmon DNA 0.4 mg/ml
Relative to: random background probes
Direction: higher = stronger binding
Shared flanks, not repeated: GCCTAGCAC … GTCTTGATTCGCTTGACGCTGCTG
Residues (chain): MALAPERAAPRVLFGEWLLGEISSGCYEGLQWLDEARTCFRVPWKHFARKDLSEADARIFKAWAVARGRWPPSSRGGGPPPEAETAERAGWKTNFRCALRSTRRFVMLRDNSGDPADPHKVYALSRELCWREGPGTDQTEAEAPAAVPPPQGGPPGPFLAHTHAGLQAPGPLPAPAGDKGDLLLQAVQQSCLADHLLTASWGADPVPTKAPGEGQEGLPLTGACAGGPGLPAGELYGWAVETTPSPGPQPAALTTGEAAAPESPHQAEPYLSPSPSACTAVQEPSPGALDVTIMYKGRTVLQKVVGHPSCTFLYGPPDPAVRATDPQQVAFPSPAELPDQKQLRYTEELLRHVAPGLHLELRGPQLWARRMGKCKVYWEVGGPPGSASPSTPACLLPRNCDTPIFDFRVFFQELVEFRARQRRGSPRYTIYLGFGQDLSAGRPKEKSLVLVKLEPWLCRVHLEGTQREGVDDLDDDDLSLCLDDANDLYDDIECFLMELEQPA
`TTCGATTTCGGGTTTCGATTAGTGCTA` — result for “fitted relative affinity”: 7.36 z-score.
For `TCATGTATATATTTTAAACTGTGCTAG`, “fitted relative affinity” read 0.527 z-score.
`GACGATTTCGGGACTAGAGACGTGCTA` — result for “fitted relative affinity”: 1.46 z-score.
`TTAGGACTTCTTCTCCTTTAGTGCTAG`: “fitted relative affinity” 0.816 z-score.
`GTTTCTTTTCTTTTCTTTTTGTGCTAG`: “fitted relative affinity” 8.92 z-score.
`GACGATCTCGGTTTCGAGACGTGCTAG`: “fitted relative affinity” 3.06 z-score.
`TTAGGTCTCCTTATCCTTTTGTGCTAG`: “fitted relative affinity” 1.26 z-score.
`TCAGAATTGAAAATTAGTACTGTGCTA` — result for “fitted relative affinity”: -0.938 z-score.

Set 3
Target: Sal-like protein 4, full length isoform A (SALL4, Homo sapiens, UniProt Q9UJQ4, residues 1-1053)
Chain of UniProt Q9UJQ4 (whole entry, looked up): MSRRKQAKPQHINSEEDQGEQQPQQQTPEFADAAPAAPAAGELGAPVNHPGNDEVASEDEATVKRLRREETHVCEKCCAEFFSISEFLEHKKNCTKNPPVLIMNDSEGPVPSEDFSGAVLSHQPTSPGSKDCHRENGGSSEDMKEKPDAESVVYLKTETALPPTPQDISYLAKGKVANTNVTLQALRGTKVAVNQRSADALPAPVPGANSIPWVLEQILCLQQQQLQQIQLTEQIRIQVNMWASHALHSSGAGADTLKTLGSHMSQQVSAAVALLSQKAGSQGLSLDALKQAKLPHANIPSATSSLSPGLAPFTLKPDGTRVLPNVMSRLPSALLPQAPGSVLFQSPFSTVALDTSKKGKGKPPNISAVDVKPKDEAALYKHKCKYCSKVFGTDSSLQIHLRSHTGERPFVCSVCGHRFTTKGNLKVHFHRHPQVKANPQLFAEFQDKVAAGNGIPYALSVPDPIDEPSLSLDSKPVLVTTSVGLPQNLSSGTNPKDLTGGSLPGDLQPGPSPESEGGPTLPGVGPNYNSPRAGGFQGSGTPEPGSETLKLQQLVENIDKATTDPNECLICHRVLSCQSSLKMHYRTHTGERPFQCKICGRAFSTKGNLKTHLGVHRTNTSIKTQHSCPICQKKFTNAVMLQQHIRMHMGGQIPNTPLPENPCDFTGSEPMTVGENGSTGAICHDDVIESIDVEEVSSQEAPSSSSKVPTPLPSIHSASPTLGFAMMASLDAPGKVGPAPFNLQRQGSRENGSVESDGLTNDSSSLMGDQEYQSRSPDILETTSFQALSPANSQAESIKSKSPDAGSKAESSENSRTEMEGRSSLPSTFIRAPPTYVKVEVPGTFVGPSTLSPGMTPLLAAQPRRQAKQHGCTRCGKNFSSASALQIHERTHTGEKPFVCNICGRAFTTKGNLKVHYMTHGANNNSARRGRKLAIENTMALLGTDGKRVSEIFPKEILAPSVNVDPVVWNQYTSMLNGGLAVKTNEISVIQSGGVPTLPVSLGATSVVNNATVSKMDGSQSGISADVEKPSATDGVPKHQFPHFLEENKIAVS
Method: universal PBM
Molecule type: double-stranded DNA, one strand shown
Medium: in vitro
Concentration: 600 nM
Notes: 8-mer, flanks averaged, mean of replicates
Direction: higher = stronger binding
With `AGATCATC` the E-score was 0.0992.
`ATAAGGTG` has an E-score of 0.117.
`TGTGCACA` has an E-score of 0.0885.
With `ATTTTGAA` the E-score was 0.332.
`GTGTCCGA` has an E-score of -0.119.
For `ATTGTCCA`, the E-score was 0.145.
The E-score of `CTGCTGAA` is reported as -0.0413.
The E-score of `AGCGACGA` is reported as -0.1.
With `GTCATGAC` the E-score was 0.0132.

Single results of other studies
`PhoQ, residues 284 288 289 292 302 303 SACGEM` gave a fold induction of 3.37 (PhoP, residues 12 14 15 18 19 NMSSL (Escherichia coli, UniProt P23836); Sort-seq, item: YFP reporter; E. coli; PhoQ-PhoP variant library, together with: 10 µM Mg2+; relative to: high Mg2+ state, higher = stronger signaling).

Repeated from above (set 1):
For `UCAAGUCCUGUGCUACACAUCGUAUGUACCGAAUCGUGUGUGUGUGUGUGUGUGUAAAGUAUUAUGUUACGCCGUUCGGAUCUGCACUUC`, the log2 enrichment was -0.0982.
The log2 enrichment of `CCUGUGCUACACAUCGUAUGUACCGAAUCAAAUUUUUUUAAACCCCCCCAAAUUUUUAAAAAAGUAUUAUGUUACGCCGUUCGGAUCUGC` is reported as -1.01.
With `AGUCCUGUGCUACACAUCGUAUGUACCGAAUCGGGGAGGGGAAAGGGGAAAAAGGGGAAAGUAUUAUGUUACGCCGUUCGGAUCUGCACU` the log2 enrichment was 0.871.
